Measurements from different studies.
A part holds a random share of what one study measured. Substitutions count along the parent as printed.

Set 1
Target: Centromere-binding protein 1, full length, N-terminal tag (CBF1, Saccharomyces cerevisiae, UniProt P17106, residues 1-351)
Chain of UniProt P17106 (whole entry, looked up): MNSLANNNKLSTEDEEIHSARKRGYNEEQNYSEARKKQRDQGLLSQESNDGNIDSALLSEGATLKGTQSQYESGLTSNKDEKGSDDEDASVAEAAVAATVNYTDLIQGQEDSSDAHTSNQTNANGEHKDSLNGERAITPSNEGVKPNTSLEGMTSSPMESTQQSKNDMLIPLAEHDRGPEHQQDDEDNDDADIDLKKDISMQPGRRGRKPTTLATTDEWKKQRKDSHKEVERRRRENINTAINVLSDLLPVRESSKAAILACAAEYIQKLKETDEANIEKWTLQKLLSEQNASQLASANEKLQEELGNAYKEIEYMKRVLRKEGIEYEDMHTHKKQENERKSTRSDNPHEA
Method: protein-binding microarray
Molecule type: double-stranded DNA, one strand shown
Sample: in vitro
Concentration: 0.8 µM
Setting: whole 60-bp probe, no competitor
Reading: higher = stronger binding
Quantity: fluorescence intensity
Sequence = GAAATAAAAGTGCCAAGCGTGCTCATTATTGGATAGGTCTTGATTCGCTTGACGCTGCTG; result = 564 a.u.
Sequence = GAACCCCCTGAAAATGTGGTGTGGTTACTAAGCTAGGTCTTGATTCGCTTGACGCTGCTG; result = 516 a.u.
Sequence = GAACAATATCCTAGTCACGGAGCACGAGAGGTATAGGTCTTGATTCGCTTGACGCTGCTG; result = 1230 a.u.
Sequence = CTACCCTTTTTCTATCACGAGGTTACTGAGCCATTCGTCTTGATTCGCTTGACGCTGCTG; result = 2400 a.u.
Sequence = GAAATACCAGAGTTGCACGTTAGGCTGATAAATTAGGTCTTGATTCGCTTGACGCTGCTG; result = 521 a.u.
Sequence = CTACTCCACTTCCATCACGCAATCGTTAGTGCTTTCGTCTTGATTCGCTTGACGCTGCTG; result = 566 a.u.
Sequence = GAAATAATAATCTCTGACGTGAAAAGCGGATCGTAGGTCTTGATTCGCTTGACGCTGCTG; result = 522 a.u.
Sequence = GAACGGACCTTCAAGGATGTGACGTTTTTGCCTTAGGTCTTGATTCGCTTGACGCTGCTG; result = 509 a.u.
Sequence = GAAAAAAGTAAGAATGCACAGGTGACTAGTGGTTAGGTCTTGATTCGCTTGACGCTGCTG; result = 884 a.u.
Sequence = CTACTCCGCCGTGTTGGTGATGCAGTTTTCTCTTTCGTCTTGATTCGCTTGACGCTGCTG; result = 511 a.u.
Sequence = GAACGCGTCAATAAACACATGATGAGTATGTGTTAGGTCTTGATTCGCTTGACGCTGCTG; result = 1090 a.u.
Sequence = GAAGGTTAGCTGTCGTGCGTTTGTATTTTTTCGTAGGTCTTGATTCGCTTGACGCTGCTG; result = 498 a.u.
Sequence = CTAGGCGAAAAAATCCAGCTGATGTTTGTTTCCTTCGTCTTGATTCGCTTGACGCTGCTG; result = 511 a.u.
Sequence = GAAATGAATACCCTAAACGTGATAAGTTTGTGCTAGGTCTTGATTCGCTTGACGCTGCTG; result = 965 a.u.
Sequence = CCTAACTACTATACGCACCTGCTATAGCTTCGTACAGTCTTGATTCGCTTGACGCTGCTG; result = 534 a.u.
Sequence = GAAATTATCATACATGATGCAAAAATACTTTATTAGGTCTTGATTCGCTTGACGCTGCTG; result = 559 a.u.
Sequence = GAAAAGGGGCTTTCGAACGTGTGATAGAAAACTTAGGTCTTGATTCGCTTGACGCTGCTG; result = 655 a.u.
Sequence = CCTAACTACTATACCCACATGACATAGCTTCGTACAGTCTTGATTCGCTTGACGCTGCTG; result = 945 a.u.
Sequence = GAAAAATCCCGTAAACTCATGATGTAAATTTTGTAGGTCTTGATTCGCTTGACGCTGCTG; result = 513 a.u.

Set 2
Target: ABI1, truncated, D143A, DHFR fusion (Arabidopsis thaliana)
Method: DHFR PCA, deep sequencing
Sample: yeast
Setting: methotrexate growth selection, single substitutions
With: (+)-ABA 200 µM
Reference: wild-type fitted maximum
Reading: higher = stronger binding
Quantity: relative binding score
Starting sequence: PYL1, truncated, DHFR fusion (Arabidopsis thaliana); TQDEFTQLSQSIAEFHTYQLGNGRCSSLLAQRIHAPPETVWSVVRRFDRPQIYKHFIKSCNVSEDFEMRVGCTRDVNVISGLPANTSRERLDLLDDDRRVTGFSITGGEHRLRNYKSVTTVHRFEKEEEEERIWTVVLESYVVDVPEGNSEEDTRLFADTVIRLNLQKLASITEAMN; partner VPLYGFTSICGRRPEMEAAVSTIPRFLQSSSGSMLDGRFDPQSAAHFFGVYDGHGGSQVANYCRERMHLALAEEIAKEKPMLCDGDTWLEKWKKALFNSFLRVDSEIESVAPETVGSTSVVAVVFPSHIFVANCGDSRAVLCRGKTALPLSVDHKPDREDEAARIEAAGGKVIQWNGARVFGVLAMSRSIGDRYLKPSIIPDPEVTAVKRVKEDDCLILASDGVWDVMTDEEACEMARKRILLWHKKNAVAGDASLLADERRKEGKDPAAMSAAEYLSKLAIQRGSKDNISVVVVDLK
Substitution = Y18N; result = 88.9%
Substitution = D144Q; result = 72.2%
Substitution = Q51F; result = 84.4%
Substitution = I12C; result = 67.9%
Substitution = F124S; result = 97.1%
Substitution = T173G; result = 78.1%
Substitution = A175I; result = 90.7%
Substitution = V44C; result = 84.7%
Substitution = R132F; result = 99.5%
Substitution = M68F; result = 93.5%
Substitution = I162E; result = -5.72%
Substitution = D144I; result = 34.9%
Substitution = T86A; result = 94.5%
Substitution = L166Q; result = 54.6%
Substitution = E127V; result = 104%
Substitution = I57G; result = 3.05%
Substitution = Q31A; result = 59%

Set 3
Target: Histone acetyltransferase KAT6A, winged helix 1, GST fusion (KAT6A, Homo sapiens, UniProt Q92794, residues 1-85)
Method: protein binding microarray
Molecule type: double-stranded DNA, one strand shown
Sample: in vitro
Concentration: not given
Setting: 8-mer, flanks averaged, mean of 2 arrays, mostly near background
Reference: not given
Reading: higher = stronger binding
Quantity: E-score
Construct (chain): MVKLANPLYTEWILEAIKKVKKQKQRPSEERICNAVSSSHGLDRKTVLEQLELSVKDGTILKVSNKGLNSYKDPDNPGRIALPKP
Sequence = GATCACCA; result = 0.00965
Sequence = ATCGTGGC; result = -0.0811
Sequence = CGACGATA; result = 0.0624
Sequence = AAACGTGG; result = -0.183
Sequence = CAGACTCA; result = -0.191
Sequence = TAATTCAA; result = -0.166
Sequence = AAGAAATT; result = -0.129
Sequence = CGGGCGAC; result = 0.356
Sequence = CCCGTACA; result = 0.281
Sequence = AGTCGACT; result = -0.0847
Sequence = CCTGAGCG; result = 0.274
Sequence = ATATTTTG; result = -0.203
Sequence = AGCTTCCG; result = 0.0623
Sequence = CCGGTAGG; result = 0.0593
Sequence = ACGTGGCT; result = -0.179
Sequence = AGTAGTCA; result = -0.136
Sequence = CATTGCTA; result = -0.142
Sequence = AGTGGTGA; result = -0.135
Sequence = CTTCGCGA; result = 0.0784
Sequence = AAATGTGT; result = -0.113
Sequence = GATATCGA; result = -0.237
Sequence = AACGGATC; result = -0.0485

Set 4
Target: RNA binding protein fox-1 homolog 2, RRM domain, GST-SBP tag (RBFOX2, Homo sapiens, UniProt O43251-10, residues 100-194)
Method: RNA Bind-n-Seq
Molecule type: RNA
Sample: in vitro
Concentration: 365 nM
Setting: natural RNA segment, single round, ends assumed
Reference: no-protein control
Reading: higher = stronger binding
Quantity: RBNS enrichment (R)
Construct (chain): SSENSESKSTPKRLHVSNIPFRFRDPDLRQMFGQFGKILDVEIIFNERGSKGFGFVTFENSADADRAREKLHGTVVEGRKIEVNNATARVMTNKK
Sequence = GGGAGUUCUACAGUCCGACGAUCACUAAGUGUUUUCAAAUAAAUCUAAAUCUUCAGCAUGAUGUGUUGUGUAUAAUUGGAGUAGAUAUUAAUUAAGUCACCUGUAUAAUGUUUUGUAAUUUUGCAAAACAUAUUGGAAUUCUCGGGUGCCAA; result = 5.44
Sequence = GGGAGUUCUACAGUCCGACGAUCGGGAGAGCACAGGACUGGCCCUGCUCUGCGGCCUCCUUUGUCCCAUAACCUGAAGUUAAGUCACAUCCCCUGUCGGGACCUCCGUGCACUCAUCUGUCAAGUGGGGGCGCUGGAAUUCUCGGGUGCCAA; result = 0.245
Sequence = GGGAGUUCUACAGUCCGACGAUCCUUCCGUGUUCCUGUCAGUCCUUCCUUCAAGAAGCCGGGGAACUCAGGCAGACUCAUCUCCGCAGAGCAUACCAGCCGUGGGGGACCGUUCGACUUGAUGAUGUGUGCACUGGAAUUCUCGGGUGCCAA; result = 0.349
Sequence = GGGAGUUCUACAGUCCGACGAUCAGACCCCCACACCUCAGUUCCCUUGGCCUCAGAAUUCACAAAAUUUCCACAAAAUCUGUCCAAAGGAGGCUGGCAGGUAUGGAAGGGUUUGUGGCUGGGGGCAGGAGGGCUGGAAUUCUCGGGUGCCAA; result = 0.957
Sequence = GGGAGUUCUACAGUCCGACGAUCAUACAUUUUGGUGACUUCUGACUCUCCUUCCACCUCCCCACUGUACACUGUGGUACAGAUAGUUGGCACUAUCCUAGUUAUGGCAUCAGGUAGGAGAAGGAGACGAAGAUUGGAAUUCUCGGGUGCCAA; result = 0.69
Sequence = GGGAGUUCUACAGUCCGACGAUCCUUUAUAGUAUUUGAAAAUGAGAAGAAGCAGCAGAUUGUAAUUUGGUUUAUUGGAUGUGAUGGACGUUCUGUAAUAGAAAACCUGAAACGAUGAUUGAAUGGGAAAAAGAUGGAAUUCUCGGGUGCCAA; result = 1.13
Sequence = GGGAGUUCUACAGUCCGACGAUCCAGCAUCCCUGGGGAAACCUGACUUGCAAUUUCUAGAGUUUAAGAUCUUCCCAUCGGCUGUGGCAAGCUCUUCCCCUGUGUGGAAUUUUGUUAUCUUUAUUUAGCUGAGGUGGAAUUCUCGGGUGCCAA; result = 0.452
Sequence = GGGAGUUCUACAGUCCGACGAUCCAGUUCCUCAUCCACAGUGCUCCCACCUGAGGACCUGGCCCUGUGUGGAAAUUGAUUGGGAUUUGAUUGUCAGCAACUUGUAUGAGAUUCAUUAAAUGGCCCUGGCAUACUGGAAUUCUCGGGUGCCAA; result = 0.485

Set 5
Target: CCNA1, cyclin fold, Cln2 fusion (human)
Method: yeast growth competition, sequencing
Sample: yeast
Setting: weak parent motif
Reference: not given
Reading: higher = stronger binding
Quantity: normalised enrichment score
Starting sequence: BRCA2 docking peptide (human); PSIKRNLLNEFDR
Substitution = PSIKRNLLNEYDR [F11Y]; result = 0.503
Substitution = PSIKRRLLNEFDR [N6R]; result = 0.252
Substitution = PSIKRNNLNEFDR [L7N]; result = 0.176
Substitution = PSIKRNLLIEFDR [N9I]; result = 0.573
Substitution = PSIKRNLANEFDR [L8A]; result = 0.445
Substitution = PSIKRNLLNEADR [F11A]; result = 0.692
Substitution = PSIKRNTLNEFDR [L7T]; result = 0.416
Substitution = QSIKRNLLNEFDR [P1Q]; result = 0.663
Substitution = PSIKRNKLNEFDR [L7K]; result = 0.35
Substitution = PSIKRNLVNEFDR [L8V]; result = 0.443
Substitution = PSIKRNLLNEFDE [R13E]; result = 0.7
Substitution = PSLKRNLLNEFDR [I3L]; result = 0.433
Substitution = PSIKRNLLNYFDR [E10Y]; result = 0.618
Substitution = PSIDRNLLNEFDR [K4D]; result = 0.235
Substitution = PSIKANLLNEFDR [R5A]; result = 0.522
Substitution = PSIKRNLLNEFDC [R13C]; result = 0.273
Substitution = PSIKRNLLNEFDD [R13D]; result = 0.333
Substitution = PSIKRNLLNETDR [F11T]; result = 0.438
Substitution = PFIKRNLLNEFDR [S2F]; result = 0.304
Substitution = PLIKRNLLNEFDR [S2L]; result = 0.73
Substitution = PSIKRPLLNEFDR [N6P]; result = 0.707
Substitution = PSIKKNLLNEFDR [R5K]; result = 0.383
Substitution = PSIKRNLLHEFDR [N9H]; result = 0.46
Substitution = PSIKRNLLNEFTR [D12T]; result = 0.612
Substitution = PSIKRNLLNFFDR [E10F]; result = 0.141

For quick reference, copied from above (set 4):
Sequence = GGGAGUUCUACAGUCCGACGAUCGGGAGAGCACAGGACUGGCCCUGCUCUGCGGCCUCCUUUGUCCCAUAACCUGAAGUUAAGUCACAUCCCCUGUCGGGACCUCCGUGCACUCAUCUGUCAAGUGGGGGCGCUGGAAUUCUCGGGUGCCAA; result = 0.245
Sequence = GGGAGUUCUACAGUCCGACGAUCCUUCCGUGUUCCUGUCAGUCCUUCCUUCAAGAAGCCGGGGAACUCAGGCAGACUCAUCUCCGCAGAGCAUACCAGCCGUGGGGGACCGUUCGACUUGAUGAUGUGUGCACUGGAAUUCUCGGGUGCCAA; result = 0.349
Sequence = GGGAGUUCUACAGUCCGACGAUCAGACCCCCACACCUCAGUUCCCUUGGCCUCAGAAUUCACAAAAUUUCCACAAAAUCUGUCCAAAGGAGGCUGGCAGGUAUGGAAGGGUUUGUGGCUGGGGGCAGGAGGGCUGGAAUUCUCGGGUGCCAA; result = 0.957
Sequence = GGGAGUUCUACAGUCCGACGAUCAUACAUUUUGGUGACUUCUGACUCUCCUUCCACCUCCCCACUGUACACUGUGGUACAGAUAGUUGGCACUAUCCUAGUUAUGGCAUCAGGUAGGAGAAGGAGACGAAGAUUGGAAUUCUCGGGUGCCAA; result = 0.69
Sequence = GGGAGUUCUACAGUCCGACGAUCCUUUAUAGUAUUUGAAAAUGAGAAGAAGCAGCAGAUUGUAAUUUGGUUUAUUGGAUGUGAUGGACGUUCUGUAAUAGAAAACCUGAAACGAUGAUUGAAUGGGAAAAAGAUGGAAUUCUCGGGUGCCAA; result = 1.13
Sequence = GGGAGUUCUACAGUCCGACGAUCCAGCAUCCCUGGGGAAACCUGACUUGCAAUUUCUAGAGUUUAAGAUCUUCCCAUCGGCUGUGGCAAGCUCUUCCCCUGUGUGGAAUUUUGUUAUCUUUAUUUAGCUGAGGUGGAAUUCUCGGGUGCCAA; result = 0.452
